Measured values of several laboratories.
Every numbered part comes from another study and shows a few of its results, in no order. Changes are numbered by the printed parent chain.

Set 1
Target: HLA class I histocompatibility antigen, A alpha chain, allele A*80:01 (Homo sapiens, UniProt P04439)
Effect on: peptide-MHC binding
Form: peptide
Tested at: concentration not given
Molecule	binding
AENCYNLEI	inactive
SVMSTFFWE	inactive
AFHQLVQVI	inactive

Set 2
Target: RNA binding protein fox-1 homolog 2, RRM domain, GST-SBP tag (RBFOX2, Homo sapiens, UniProt O43251-10, residues 100-194)
Method: RNA Bind-n-Seq
Form: RNA
Medium: in vitro
Tested at: 365 nM
Setting: natural RNA segment, single round, ends assumed
Reference: no-protein control
Reading: higher = stronger binding
Constant ends, left off below: GGGAGUUCUACAGUCCGACGAUC … UGGAAUUCUCGGGUGCCAA
Construct (chain): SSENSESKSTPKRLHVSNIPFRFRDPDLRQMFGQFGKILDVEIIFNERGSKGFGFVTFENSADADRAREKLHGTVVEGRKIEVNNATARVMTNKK
Sequence	RBNS enrichment (R)
UGCCUUCUUCCAGGAUCAGGGGUUAGGGUGCAAGAAGCCAUUUAGGGCAGCAAAACAAGUGACAUGAAGGGAGGGUCCCUGUGUGUGUGUGUGCUGAUGUUUCCUGGGUG	0.976
UAUUAAAUAACCAUUAGAAAAGCUCAGUAGACUUAUUUGAGAAAUUAAGCCUUGUGCAGGAUGAUGGAUUUGACUUACUAAUGUACUGUCACAGACAAAUAUGGGUAGUU	0.325
AGAAUUCAGAGCACGGAACUUUCCAAGAACUGGUGUUAACAUCUUGUACUGUGGCCACGAUUUGUCCCCGUGAUGAUUCUUGGGUCUAGAUUGUGAGUUCUUCAAGGGCA	1.39
AUGCUAGACAUGGAGAAUCUGCUCUGUUUGUCCUUUAUACAUUUCUGUAGUUAACAGAACACUGUAAUGUGCCUUGGAGCUUAGUAACUUGUAAUAAAUUCAAUUGAUAU	0.557
UUUCCAAAAUUUUCAUGGGGCUUGUGGCAACACGGGCCGUGAAUCUGUGUAUAAAAUUUACUGGCCUUCUUCACUUACCUGCUCUAGUAUCGUAUCGUGUGUGCGUGCGU	0.35
GGAAGAGGACACGCCAGAGCUUCAGUGAGGUUUCCGAGCCUCUCCCUGCCCAUCCUCACCACUGAGGCCACGACAAAGCACAGCUCCAGCUCGGACAGCACCCUCAGUGC	0.403
UAGAAUGAAUAAAUUACUGAUAAGGUUACAAAUAGGUAAAUGUCACACUUCUGUUAAAAUGCAGGAGGUAGUGUCAUAAUGCCGUCUUUAUAUUCUUAAUAAAUAGCACU	0.305
GAGGGUCUACACAGCAAGAGAACAGAAAUACUGUGUCUCAUGAAGGAUCACAGAGUUCAGGGGGAAAAUGUGACAGCACACGCACAAACGCCUUCACUGGAUCAGCCGCU	2.05

Set 3
Target: FOSL2, bZIP domain (human)
Method: DHFR protein complementation
Medium: yeast
Setting: single substitutions, most at no-binding floor
Reference: wild-type JUN-FOS pair
Reading: higher = stronger binding
Parent: JUN, bZIP domain (human); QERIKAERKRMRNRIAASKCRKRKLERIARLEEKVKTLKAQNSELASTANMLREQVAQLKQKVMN; partner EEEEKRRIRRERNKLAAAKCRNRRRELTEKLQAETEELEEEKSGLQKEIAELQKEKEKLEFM
Substitution	binding fitness [natural log]
A40L	-0.0122
L52S	-1.3
L45A	-0.507
Q41V	-0.0257
I28K	-0.081
N42W	-0.931
K39F	-0.971
A40T	0.13

Set 4
Target: CCNB2, cyclin fold, Cln2 fusion (human)
Method: yeast growth competition, sequencing
Medium: yeast
Setting: strong parent motif
Reference: not given
Reading: higher = stronger binding
Parent: viral docking peptide; TSVRRALFTGGSD
Substitution	normalised enrichment score
T9M	0.746
R5A	0.215
A6P	-0.377
G10F	0.116
G10T	0.633
S12T	0.45
V3K	0.336
G10M	0.276
G10N	1.29
S12A	0.659
G10C	0.73
A6I	0.792
L7M	0.902
R4I	0.416

Some of these lines once more (set 2):
Sequence	RBNS enrichment (R)
UAUUAAAUAACCAUUAGAAAAGCUCAGUAGACUUAUUUGAGAAAUUAAGCCUUGUGCAGGAUGAUGGAUUUGACUUACUAAUGUACUGUCACAGACAAAUAUGGGUAGUU	0.325
AGAAUUCAGAGCACGGAACUUUCCAAGAACUGGUGUUAACAUCUUGUACUGUGGCCACGAUUUGUCCCCGUGAUGAUUCUUGGGUCUAGAUUGUGAGUUCUUCAAGGGCA	1.39
AUGCUAGACAUGGAGAAUCUGCUCUGUUUGUCCUUUAUACAUUUCUGUAGUUAACAGAACACUGUAAUGUGCCUUGGAGCUUAGUAACUUGUAAUAAAUUCAAUUGAUAU	0.557
UUUCCAAAAUUUUCAUGGGGCUUGUGGCAACACGGGCCGUGAAUCUGUGUAUAAAAUUUACUGGCCUUCUUCACUUACCUGCUCUAGUAUCGUAUCGUGUGUGCGUGCGU	0.35
GGAAGAGGACACGCCAGAGCUUCAGUGAGGUUUCCGAGCCUCUCCCUGCCCAUCCUCACCACUGAGGCCACGACAAAGCACAGCUCCAGCUCGGACAGCACCCUCAGUGC	0.403
